Assay results pooled from the literature.
Protocols differ between the studies behind these lines. “And” joins repeats or separate records; there may be more than shown. ± marks the error that the study gave. ≈ marks a conversion by molar mass, not a printed value.
PPARG: Peroxisome proliferator-activated receptor gamma (PPARG, Homo sapiens, UniProt P37231)

CC(C)C[C@H](NC(=O)[C@H](Cc1ccc(O)cc1)NC(=O)[C@@H](CCCNC(=N)N)NC(=O)[C@@H](CO)NC(=O)[C@H](Cc1ccccc1)NC(=O)[C@H](CC1CCCCC1)NC(=O)[C@H](CC(=O)O)NC(=O)CN1CCN(CC(=O)O)CCN(CC(=O)O)CCN(CC(=O)O)CC1)C(=O)N[C@@H](Cc1c[nH]c2ccccc12)C(=O)N[C@@H](CO)C(=O)O [copper-64 labelled] — activity concentration (human, pancreas; concentration not given, 24 h): 3200 Bq/mL and 1340 Bq/mL and 1590 Bq/mL and 742 Bq/mL and 1550 Bq/mL and 1300 Bq/mL
Nc1nc(-c2ccccc2)nc2[nH]nc(Nc3ccc([N+](=O)[O-])cc3)c12 — IC50 (coxsackievirus B3; viral cytopathic effect; HeLa): 6000 nM
COc1cc(O)ccc1CCC(c1ccc(O)cc1)c1cc2c(c(C)c1O)OC(c1ccc(O)cc1)CC2 (mixture of isomers) — 4-HDHA level (human blood; 3 µM, with: A23187): 49 ± 26 pg/mL
COC1CN([C@H]2CC[C@H]([C@@]3(C)Oc4c(Cl)cc(C(=O)NCc5c(SC)cc(C)[nH]c5=O)c(C)c4O3)CC2)C1 — log2 fold change (RNA-seq, refers to: RGS2 mouse homolog; mouse, HT-1376 xenograft, whole blood; dose not given; relative to: vehicle): 0.0327
Nc1nc(-c2ccc(Cl)cc2)nc2[nH]nc(Nc3cccc(F)c3)c12 — IC50 (rhinovirus B42; viral cytopathic effect; HeLa): 270 nM
Cc1ncsc1-c1ccc(C(C)NC(=O)C2CC(O)CN2C(=O)C(NC(=O)CCCCCCCCCCN2CCCC(Nc3ncc(Cl)c(Nc4ccccc4S(=O)(=O)C(C)C)n3)C2)C(C)(C)C)cc1 (stereo not shown) — log2 fold change (22Rv1; RNA-seq, refers to: LEAP2 mRNA; concentration not given; relative to: DMSO): -3.15
Cc1cccc2c1N(C(=O)n1ccnn1)CC2 — germination rate (Arabidopsis thaliana; wild type, seeds; 1 µM, high ambient temperature): 3.2% and 80% and 0% and 5.7% and 68.2%
COc1ccc(-c2ccc(OC(C)C)c3cnccc23)c2ccccc12 — IC50 (Plasmodium falciparum; parasite growth, SYBR Green; NF54; blood stage): 25400 nM
O=C(O)c1cc(O)cc(O)c1 — pcaH mRNA level (Streptomyces coelicolor; RT-PCR; 2 mM, 1 h): increased
COC1C=COC2(C)Oc3c(C)c(O)c4c(c3C2=O)C2=NC3(CCN(CC(C)C)CC3)NC2=C(NC(=O)C(C)=CC=CC(C)C(O)C(C)C(O)C(C)C(OC(=O)Nc2cccnn2)C1C)C4=O (stereo not shown) — IC90 (Mycobacteroides abscessus; bacterial growth; subsp. massiliense 097 clinical isolate; rough, slow grower): 335 nM
C=C(NC(=O)c1csc(-c2nc3c(cc2O)-c2nc(cs2)C(=O)NC(C(C)O)C(=O)NC(=C(C)OC)c2nc(cs2)C(=O)NC2c4nc(cs4)C(=O)NC(COC(=O)c4c5c6c(cccc6n4O)COC(=O)C(OC4CC(C)(O)C(N(C)C)C(C)O4)C2OC5)c2nc-3cs2)n1)C(N)=O (stereo not shown) — MBC (Streptococcus pyogenes; broth microdilution): 0.125 µg/mL (≈ 0.087 µM)
CC[C@H](C)[C@H](NC(=O)[C@H](Cc1ccc(O)cc1)NC(=O)[C@H](CCC(=O)O)NC(=O)CNC(=O)[C@H](CCC(=O)O)NC(=O)[C@H](CCCCN)NC(=O)[C@H](CCCCN)NC(=O)[C@H](CC(=O)O)NC(=O)[C@H](Cc1c[nH]cn1)NC(=O)[C@H](Cc1c[nH]cn1)NC(=O)[C@H](Cc1c[nH]cn1)NC(=O)[C@H](Cc1c[nH]cn1)NC(=O)[C@H](Cc1c[nH]cn1)NC(=O)[C@H](Cc1c[nH]cn1)NC(=O)[C@H](Cc1c[nH]cn1)NC(=O)[C@H](Cc1c[nH]cn1)NC(=O)[C@H](Cc1c[nH]cn1)NC(=O)[C@@H](N)Cc1c[nH]cn1)C(=O)N[C@@H](CCCCN)C(=O)N[C@@H](CC(C)C)C(=O)N[C@@H](CCCCN)C(=O)N[C@H](C(=O)N[C@H](C(=O)NCC(=O)N[C@@H](CCC(N)=O)C(=O)N[C@@H](CC(=O)O)C(=O)N[C@@H](CO)C(=O)N[C@@H](CO)C(=O)N[C@@H](CCC(=O)O)C(=O)N[C@H](C(=O)N[C@@H](Cc1c[nH]cn1)C(=O)N[C@@H](Cc1ccccc1)C(=O)N[C@@H](CCCCN)C(=O)N[C@H](C(=O)N[C@@H](CCCCN)C(=O)N[C@@H](CCSC)C(=O)N[C@H](C(=O)N[C@H](C(=O)N[C@@H](Cc1c[nH]cn1)C(=O)N[C@@H](CC(C)C)C(=O)N[C@@H](CCCCN)C(=O)N[C@@H](CCCCN)C(=O)N[C@@H](CC(C)C)C(=O)N[C@@H](CCCCN)C(=O)N[C@@H](CCC(=O)O)C(=O)N[C@@H](CO)C(=O)N[C@@H](Cc1ccc(O)cc1)C(=O)N[C@@H](CS)C(=O)N[C@@H](CCC(N)=O)C(=O)N[C@@H](CCCNC(=N)N)C(=O)N[C@@H](CCC(N)=O)C(=O)O)[C@@H](C)O)[C@@H](C)O)C(C)C)[C@@H](C)CC)[C@@H](C)CC)C(C)C — TH level mean difference (Drosophila melanogaster; immunoblot; head; 240 µM, normalised to β-actin, unit not given; relative to: untreated): -0.327
CC(C)C[C@H](NC(=O)[C@@H](CCCCNC(=O)[C@@H](Cc1ccccc1)NC(=O)CCCCCNC(=O)CN1CCN(CC(=O)O)CCN(CC(=O)O)CCN(CC(=O)O)CC1)NC(=O)[C@H](Cc1ccc(O)cc1)NC(=O)[C@H](CO)NC(=O)[C@H](Cc1c[nH]c2ccccc12)NC(=O)[C@H](Cc1c[nH]cn1)NC(=O)[C@@H]1CCC(=O)N1)C(=O)N[C@@H](CCCNC(=N)N)C(=O)N1CCC[C@H]1C(=O)NCC(N)=O [indium-111 labelled] — tissue uptake (female athymic nude mice, stomach; intravenous, 0.037 MBq, 2 h): 0.23 ± 0.12 %ID/g
CCCC[C@H](NC(=O)CCCCCCCNC(=O)CN1CCN(CC(=O)O)CCN(CC(=O)O)CC1)C(=O)N[C@H]1CC(=O)NCCCC[C@@H](C(N)=O)NC(=O)[C@H](Cc2c[nH]c3ccccc23)NC(=O)[C@H](CCCNC(=N)N)NC(=O)[C@@H](Cc2ccccc2)NC(=O)[C@H](Cc2c[nH]cn2)NC1=O [technetium-99m labelled] — tissue uptake (C57 mouse, tumor; intravenous, 0.037 MBq, 24 h): 0.91 ± 0.57 %ID/g
COc1ccc(CCO)cc1O — inhibition (Zika virus; viral replication, CCK-8; Vero C1008; 10 µM, 96 h): 28.7 ± 1.28%
C=CC(=O)Nc1cccc(Cn2ncc3cnc(Nc4cnn(CCOC)c4)nc32)c1 — percent of control (EPHA8 human; binding, KINOMEscan; 100 nM; lower = stronger binding): 100%
O=c1[nH]cc(C(c2ccccc2F)c2c[nH]c(=O)[nH]c2=O)c(=O)[nH]1 — inhibition (Human immunodeficiency virus 1; viral replication, inhibitor, ELISA; 1 µg/mL): 3%
C=C[C@]1(C)C[C@@H](OC(=O)CSc2ccc(NC(=O)c3ccco3)cc2)[C@]2(C)[C@H](C)CC[C@]3(CCC(=O)[C@H]32)[C@@H](C)[C@@H]1O — mycoplasma load reduction (Mycoplasma gallisepticum; infected chickens; intramuscular, 5 to 50 mg/kg): < 2 log10 CFU/mL
Cc1ncsc1-c1ccc(CNC(=O)[C@@H]2C[C@@H](O)CN2C(=O)[C@@H](NC(=O)CN2CCN(C3CN(CCNC(=O)C[C@@H]4N=C(c5ccc(Cl)cc5)c5c(sc(C)c5C)-n5c(C)nnc54)C3)CC2)C(C)(C)C)cc1 — protein level (Spodoptera frugiperda; degrader, targeted LC-MS, refers to: BRD3; Sf9; 0.01 µM): 28.2% and 30.7% and 51.5% and 44.6%
Nc1nc(-c2ccccc2)nc2[nH]nc(Nc3ccccc3F)c12 — IC50 (coxsackievirus B3; viral cytopathic effect; HeLa): 120 nM
COc1cc(O)c(-c2cc(-c3cc(-c4c(O)cc5c(c4OC)[C@H](C)N[C@H](C)C5)c4cc(C)cc(OC)c4c3O)c(O)c3c(OC)cc(C)cc23)c2c1[C@H](C)N[C@H](C)C2 — IC50 (Plasmodium falciparum; asexual parasite proliferation, SYBR Green I fluorescence; clinical isolate SB_05, Mozambique): 57.3 ± 1.6 nM
O=c1[nH]cc(C(c2cccc(F)c2)c2c[nH]c(=O)[nH]c2=O)c(=O)[nH]1 — inhibition (Human immunodeficiency virus 1; viral replication, inhibitor, ELISA; 1 µg/mL): 23%
CN1CCCNC(=O)c2cccc(c2)C(=O)NCCCN(C)CCCNc2cccc3c2C(=O)c2cccc(c2C3=O)NCCC1 — log2 fold change (SAS; RNA-Seq, refers to: DHX36 mRNA; 1 µM, 6 h; relative to: untreated cells): -0.803
Cc1c(Cc2ccc(OC(C)C(=O)O)cc2)c2ccc(C(=O)N[C@@H](C)c3ccc(C4CC4)cc3)cc2n1C (stereo partly shown) — IC50 (PPARG; ligand displacement, TR-FRET): 57 nM
Nc1nc(-c2ccccc2)nc2[nH]nc(Nc3cc(F)c(F)c(F)c3)c12 — IC50 (coxsackievirus B3; viral cytopathic effect; HeLa): 60 nM
CNS(=O)(=O)Nc1nccc(Cc2c(C)c3ccc(Oc4ncccc4F)cc3oc2=O)c1F — IC50 (HCC2935; cell viability; 7 days): 48.5 nM
CC(C)(C)NCC(SS(=O)(=O)O)c1ccccc1 (stereo not shown) — spleen weight reduction (Schistosoma mansoni; infected mouse; 200 mg/kg, 1368 h; relative to: vehicle): 55%
Nc1ncc(-c2cc(-c3cnn(CC(F)(F)F)c3)ncc2F)nc1C(=O)NC1CNCC(F)C1 (stereo not shown) — remaining binding (CLK1; KINOMEscan; 1 µM; relative to: DMSO control): 35%
COc1cc(O)c(-c2cc(-c3cc(-c4c(O)cc(OC)c5c4C[C@@H](C)N[C@@H]5C)c4cc(C)cc(OC)c4c3O)c(O)c3c(OC)cc(C)cc23)c2c1[C@@H](C)N[C@H](C)C2 — IC50 (Plasmodium falciparum; asexual parasite proliferation, SYBR Green I fluorescence; 7G8): 70 ± 14 nM
Nc1nc(-c2ccccc2)nc2[nH]nc(Nc3ccc(F)cc3)c12 — IC50 (coxsackievirus B3; viral cytopathic effect; HeLa): 60 nM
O=c1[nH]cc(C(c2ccc(Cl)cc2)c2c[nH]c(=O)[nH]c2=O)c(=O)[nH]1 — inhibition (Human immunodeficiency virus 1; viral replication, inhibitor, ELISA; 1 µg/mL): 69%
Nc1nc(-c2ccccc2)nc2[nH]nc(Nc3c(F)cc(F)cc3F)c12 — IC50 (rhinovirus B42; viral cytopathic effect; HeLa): 790 nM
CN(Cc1ccc(C2(C(F)(F)F)CCC2)cc1)Cc1cccc2ccccc12 — inhibition zone (Trichophyton mentagrophytes; microbial growth, disc diffusion; ATCC18748; 0.512 µg/mL, 72 h): 49.2 mm
COc1cc(Nc2n[nH]c3nc(-c4ccccc4)nc(N)c23)cc(OC)c1OC — IC50 (coxsackievirus B3; viral cytopathic effect; HeLa): 2230 nM
Cc1c(Cc2cccc(OC(C)(C)C(=O)O)c2)c2ccc(C(=O)N[C@@H](C)c3cccc(Cl)c3)cc2n1C — IC50 (PPARG; ligand displacement, TR-FRET): 2 nM
Nc1nc(-c2ccccc2)nc2[nH]nc(Nc3cccc(F)c3)c12 — IC50 (rhinovirus B42; viral cytopathic effect; HeLa): 60 nM
O=c1[nH]cc(C(c2cccc([N+](=O)[O-])c2)c2c[nH]c(=O)[nH]c2=O)c(=O)[nH]1 — inhibition (Human immunodeficiency virus 1; viral replication, inhibitor, ELISA; 1 µg/mL): 42%

Excerpt of the above:
CCCC[C@H](NC(=O)CCCCCCCNC(=O)CN1CCN(CC(=O)O)CCN(CC(=O)O)CC1)C(=O)N[C@H]1CC(=O)NCCCC[C@@H](C(N)=O)NC(=O)[C@H](Cc2c[nH]c3ccccc23)NC(=O)[C@H](CCCNC(=N)N)NC(=O)[C@@H](Cc2ccccc2)NC(=O)[C@H](Cc2c[nH]cn2)NC1=O [technetium-99m labelled] — tissue uptake (C57 mouse, tumor; intravenous, 0.037 MBq, 24 h): 0.91 ± 0.57 %ID/g
Cc1ncsc1-c1ccc(C(C)NC(=O)C2CC(O)CN2C(=O)C(NC(=O)CCCCCCCCCCN2CCCC(Nc3ncc(Cl)c(Nc4ccccc4S(=O)(=O)C(C)C)n3)C2)C(C)(C)C)cc1 (stereo not shown) — log2 fold change (22Rv1; RNA-seq, refers to: LEAP2 mRNA; concentration not given; relative to: DMSO): -3.15
